Published values gathered from unrelated publications.
Protocols differ between the studies behind these lines.
UniProt C3KDW3, sequence (whole entry, looked up): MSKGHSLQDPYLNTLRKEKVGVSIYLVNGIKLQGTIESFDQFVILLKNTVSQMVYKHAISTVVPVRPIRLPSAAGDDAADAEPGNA

UNC13D D127N/D133N/D941N/D947N
signal (PTK2; co-IP; HEK293; with EGTA, read off a plot; higher = more binding): 0.43%

AGCGAAAGTAGCCAGTGGGGTTTCCGACGGCATCGGCA (dsDNA)
binding (rccR (Pseudomonas aeruginosa, UniProt A0A071KWR3); EMSA; double-stranded DNA, one strand shown; together with: KDPG 8 µM): binds

TATATCATGCTATACCTATTCTTTGTGGTATAATTGCAAG (dsDNA)
binding (Aspartate aminotransferase (Streptococcus pneumoniae, UniProt Q8DNN5); EMSA; double-stranded DNA, one strand shown; two complexes): binds

GUAUUCAAAAAGAACAAUUCACAAG (ssRNA)
binding (hfq full length assumed (Pseudomonas fluorescens, UniProt C3KDW3); EMSA; RNA): binds

A few entries again:
GUAUUCAAAAAGAACAAUUCACAAG (ssRNA)
binding (hfq full length assumed (Pseudomonas fluorescens, UniProt C3KDW3); EMSA; RNA): binds
